Experimental data gathered from unrelated publications.
A part holds a random share of what one study measured. Values joined by “and” are separate records of one study, mostly repeats; a detail may differ. Substitutions count along the parent as printed.

Study 1
Target: RNA binding protein fox-1 homolog 2, RRM domain, GST-SBP tag (RBFOX2, Homo sapiens, UniProt O43251-10, residues 100-194)
Technique: RNA Bind-n-Seq
Form: RNA
Matrix: in vitro
Tested at: 365 nM
Setting: natural RNA segment, single round, ends assumed
Reference: no-protein control
Reading: higher = stronger binding
Endpoint: RBNS enrichment (R)
Constant ends, left off below: GGGAGUUCUACAGUCCGACGAUC … UGGAAUUCUCGGGUGCCAA
Target sequence (chain): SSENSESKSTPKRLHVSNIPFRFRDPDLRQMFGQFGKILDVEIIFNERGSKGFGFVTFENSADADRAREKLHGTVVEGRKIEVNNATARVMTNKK
UCUUAACAGAAAUAUUUUUAAAAAUGAAAAAGUACUCAAAAGUGAGAAGAGUUAACUUGUCAAAGCAGAAUGGUUCUCUUUGACCCACUCUGGUCUAUUGUGUAAAUAUU: 0.843
CUGGGACUGUGAGGCUCCUUUUGACGUACUUUUGACAUCAGGCAGGUUUGGGAAGAAACAAAGCCAUGCCUGCUCCUGCCUCUCUCCCAACAUGUUUCCAGCAAGUAGAU: 1.17
CCAGGGGUCACAACCUACAGGUUGAGAACUACUAUUCUAAAGGCUCAGCACUCUGCAGAGCACAGGCUGAGCUGCUCUGAGUACGGGGUGGCCUGAGUGUGGAGGACAAA: 0.324
CUCUGCCUGUCUCCCCCACCGGGCUGGGAGCUCUGCAGAGCAGGAAACAUGACUCGUAUAUGUCUCAGGUCCCUGCAGGGCCAAGCACCUAGCCUCGCUCUUGGCAGGUA: 0.274
UGGUGGAAGACACCCACCAGGUCAUACAAUGUGAACUUUUGUAUCUCUGCAGUGGUUUCAAGGACAAAUAGUGUCCAAUGUAUUGGGCCAUUUUUCCUGCUGUUUUUAUA: 0.479
UGACCUUCAGAUAUUUUCUACUUAAAAAAUUGUGGAUGAACGCCCUAUCUCCCUCCCACAGUGGAGUCCCCAUUACCUUGUCUAAAACAAUUUUUUAAUGUGUUCUGUGG: 0.522
AGGUCAGGAGAUCGAGACCAUCCUGGCUAACAUGGUGAAACCCCGUCUCUGCUAAAAAUACAAAAAAUUAGCCAGAUGUGGUGGUGCACACCUGUAGUCCCAACUAUUCG: 0.298
ACUCCCAGAUUACCCGUGGGCGUGUGUCUGUACCGAGGCAGGGAUCUUGGCUUCCUGAUGGGAUCUCUUCUAGUGCAGUCCAGAUAGGGCUUGCAAUAUGAACCUUGGAA: 0.418
UGACCGCAACAUCCCGUGUGGGCGGCCGGCCGCUCCUGCAGCCCGACUCUCCUGCCAGUGUCUUUCAGGAUGUCAACGGGUGGUACGAUUCUGGCAUUUGUUUCUCGCUC: 0.285
GGCCUUCUCAGGCCUGGCCCUUUUCAUCAGAUACAAGGGCCAGGAGACCAGACUCUUGCUUCUGAUCUUCCUUCAGCCCUCAGUGUGGGAAUAAAUUAAGUUUCUCAACA: 0.225
UCAUUAAUGAUGGUGGAAGCAAGUGUAUUAUUUGUUUCCUGGAGAAUUUGAUGAAGAGCAGUCUUCCUCUGCUGCCCUUUACUAAGCAAAACCUGGAGCAAUUUAAAUAG: 0.445
UGUUACCGCAGGUCAGUAUUUUCUAAGGUGCGCGAGGCACACGGAUCUGAGUGAGGCGUAGGAGGGAAGGCGCAUGGACUGGAACUUGCAAGUUGACUCUGGUUAUGCAA: 2.27

Study 2
Target: Ras GTPase-activating protein-binding protein 1, RRM domain (G3BP1, Homo sapiens, UniProt Q13283)
UniProt Q13283, sequence (whole entry, looked up): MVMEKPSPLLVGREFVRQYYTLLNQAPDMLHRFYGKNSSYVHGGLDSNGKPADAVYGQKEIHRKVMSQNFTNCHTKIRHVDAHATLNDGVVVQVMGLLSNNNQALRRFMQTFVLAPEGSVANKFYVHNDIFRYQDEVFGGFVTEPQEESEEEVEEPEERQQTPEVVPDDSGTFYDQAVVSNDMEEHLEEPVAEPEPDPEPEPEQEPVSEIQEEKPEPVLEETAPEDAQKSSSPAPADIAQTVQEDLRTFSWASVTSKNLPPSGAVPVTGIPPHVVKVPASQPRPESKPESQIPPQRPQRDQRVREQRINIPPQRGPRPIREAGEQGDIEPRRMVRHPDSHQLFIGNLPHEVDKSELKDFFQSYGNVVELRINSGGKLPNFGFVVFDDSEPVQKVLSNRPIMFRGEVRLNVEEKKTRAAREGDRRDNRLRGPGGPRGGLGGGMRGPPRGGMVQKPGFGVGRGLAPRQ
Technique: RNA Bind-n-Seq
Form: RNA
Matrix: in vitro
Tested at: 1 µM
Setting: whole 134-nt RNA, ends assumed
With: 150 mM KCl
Reference: input library
Reading: higher = stronger binding
Endpoint: log2 enrichment
Constant ends, left off below: GGGAGUUCUACAGUCCGACGAUC … UGGAAUUCUCGGGUGUCAAGG
UUAAUGAUAUAAGUAGAGAGUAGUAUCCUGGUGGAGUUGUAACCACUAUUUUUGUUUUCUAGAUCCCUAUGGUUCAGGAGGCCAGAAAUU: -0.451
UAACUUUAGAGGAGGAUAUGAUGGAUAUGGCAGUGGACGUGGAUUUGGGGAUGGCUAUAAUGGGUAUGGAGGAGGACCUGGAGGUGGCAA: -0.896
CCUCAAGUCCUGUGCUACACAUCGUAUGUACCGAAUCGGGGAGGGAGGGGAGGAAAGUAUUAUGUUACGCCGUUCGGAUCUGCACUUCCA: 0.0738
CAAGUCCUGUGCUACACAUCGUAUGUACCGAAUCGGAAAAAAAGGUUUUUGGAGGAAAGUAUUAUGUUACGCCGUUCGGAUCUGCACUUC: -0.257
CAAGUCCUGUGCUACACAUCGUAUGUACCGAAUCGGGGAAGGGGAAGGGGAAGGGGAAAGUAUUAUGUUACGCCGUUCGGAUCUGCACUU: 1.45
ACCAUGCAGGUGGGCAUCUUUGGGAAGUGGGGCAAGGGGGGGGUAGGGAGGGGGGUAACACUUUGGGAACAGGUGGUCCCAGGUCGUUUC: 0.856
CUGUGCUACACAUCGUAUGUACCGAAUCGGGCCCCCCCGGGCCCCCCCGGGGCCCCCCCGGGAAAGUAUUAUGUUACGCCGUUCGGAUCU: -0.667
CUCAAGUCCUGUGCUACACAUCGUAUGUACCGAAUCGGUUGGGUUGGGUUGGGAAAGUAUUAUGUUACGCCGUUCGGAUCUGCACUUCCA: 0.0942
UGGACAGGUUGCUGGACCCCGCCAACAGAGCCCACCUGGGCCUGGAGGAGCAGCUGAGAGAGCUGCUGGACAUGCUCGACCUCACCUGCG: -0.779
GCAGGAAGUAAAAACAAAUGGAAAUGCUUCGGAUAGUGGCAGGGGUGGGGGUUGCUAAGGAAAGGCUGGGAUGGGAGUGGGUAAAGAGUU: 0.702
AGUCCUGUGCUACACAUCGUAUGUACCGAAUCGGGGAGGGGUGGGGAAAAAAAGGGGAAAGUAUUAUGUUACGCCGUUCGGAUCUGCACU: 0.797
CAAGUCCUGUGCUACACAUCGUAUGUACCGAAUCGGAAAGGAAAGGAAAAAAAGGAAAGUAUUAUGUUACGCCGUUCGGAUCUGCACUUC: -0.0554
ACCAUGCAGGUGGGCAUCUUUGGGAAGUGGGGCAAGGGGGGGAUAGGGAGGGGGGUUACACUUUGGGAACAGGUGGUCCCAGGUCGUUUC: -0.091
UCAAGUCCUGUGCUACACAUCGUAUGUACCGAAUCGGAAAAAAAGGUGGUUUGGAAAGUAUUAUGUUACGCCGUUCGGAUCUGCACUUCC: -0.196

Study 3
Target: RING finger protein unkempt homolog, zinc fingers 1-6, GST-SBP tag (UNK, Homo sapiens, UniProt Q9C0B0, residues 30-357)
UniProt Q9C0B0, sequence (30-357, looked up): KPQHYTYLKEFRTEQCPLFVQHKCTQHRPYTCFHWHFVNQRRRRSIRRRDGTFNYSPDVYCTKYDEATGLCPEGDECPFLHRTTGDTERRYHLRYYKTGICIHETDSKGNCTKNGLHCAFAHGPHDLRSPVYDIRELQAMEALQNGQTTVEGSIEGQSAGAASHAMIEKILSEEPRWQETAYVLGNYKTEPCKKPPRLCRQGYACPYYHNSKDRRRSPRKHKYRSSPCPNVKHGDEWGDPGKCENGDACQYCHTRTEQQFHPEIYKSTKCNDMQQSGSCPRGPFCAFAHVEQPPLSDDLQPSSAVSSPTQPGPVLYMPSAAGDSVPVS
Technique: RNA Bind-n-Seq
Form: RNA
Matrix: in vitro
Tested at: not given
Setting: RNA with constant flanks, human-mouse chimeric sites, ends assumed
Reference: input RNA pool
Reading: higher = stronger binding
Endpoint: bound/input enrichment
Constant ends, left off below: GGGAGUUCUACAGUCCGACGAUC … CAACAGAGGAUUGAGCAUCA
AUGGAGAAGGAUUCUCUGCCCCGCUUUGUGCGCUCUGAGUUUUAUCAGGAGCUAAUCAAGUAGUCAUCUGGUCAGGCUUCCAAAAGUUGCCCUGUGAGUUGAGUUACAUCCUUUGUAGCA: 0.166 ratio
AUAAAGGCUAUGUUGAGUGGCCCAGGUCAGUUUGCUGAGAAUGAAACCAACGAGGUCAAUUUUAGAGAGAUCCCCUCACAUGUGCUAUCAAAAGUGUGCAUGUAUUUUACGUACAAGGUC: 0.214 ratio
UAAGUCCUGUGCCAGCACUUCGCUCAUAAAGUUUUAAAUUCUGGACCAAUAGUGUUUGUUUCCUGAUUAUUGUAUCCAAUACUUUAUCUAGUAUGUAACUCAUGCUUACUGAUAAUAAAA: 0.523 ratio
AGAAAGCAAAACUUGGAACGAUUUAAGAAAGGAGACGUAAGAUUCUUGAUUUGCACAGAUGUAGCUGCUAGAGGAAUUGAUAUCCAUGGCGUUCCUUAUGUGAUCAAUGUCACUCUGCCU: 0.193 ratio
CUCAGAGACGUGGCAUAUCAGUAUGUGAAAAAGGGGGCUCGUAUAUUUGUGGAAGGGAAAAUAGACUAUGGCGAGUACAUGGAUAAAAACAAUGUGAGGCGGCAAGCAACAACAAUCAUA: 0.525 ratio
AGAAUCUUGGGACUGUUUUGCUUGAUUGGUCAUUGAUAGCUUAACAAACAUGGAGAUAAGAUUAGAAAUCUUGACAUCAACAGGUAUUAAGCAGAAAAAACCCUGGCCACGUGUCUCCUG: 0.157 ratio
CCUCUGCCCCGCUCUGCAGCCUGGGGACACUGGGCUGGGACCAGAAUCCAGCUUUCUUUUAAUAGUGUCAGUGUAACUGUAUCCCGUGACAUUUCAUUUUUUUUAAAUAGUGUAUUUUUU: 6.77 ratio
UCUGGUCACACUCGUGUGUAUGGUGUUUGCUUUGUGGACACUUCACUGGGCAAGUUUUUCAUAGGUCAGUUUUCAGAUGACCGCCACUGUUCCAGAUUUAGGACGCUAGUGGCUCACUAU: 0.283 ratio
CUGUGACCACAAGAUCCUACCUGAGUGGCAGCUGAAGUUGACUCCCUCUCCUUGCCUGAACCCCCCCCUUUUGUUCCCCCAUCCCCCAGUGUCGGCUGAGAUGUUGCCUCUGCACGGUUC: 1.32 ratio
AAGGUGAUGACUAUGUUUGUCCAACGACAGGUGUUUGCGGAGAGCAAAGAUGAGAUUGCGUUAGUCCUCUAUGGCACAGAUGGCACUGAUAAUGCCCUUGCUGGCAAGGACCAGUAUCAG: 0.206 ratio
CAGUCCCCGUGUCCCAGUGCAGGACGAUGUGAACAAAAACUCAAAGCGGCCCUUUCUUUGUAGUUCUUGAUUCUCGAAAUGUGCUAUUAUUGUUUGUCUUUUUUUUUUUUUUUUUAAAGA: 2.45 ratio

Study 4
Target: CCND3, cyclin fold, Cln2 fusion (human)
Technique: yeast growth competition, sequencing
Matrix: yeast
Setting: weak parent motif
Reference: not given
Reading: higher = stronger binding
Endpoint: normalised enrichment score
Starting sequence: RBL2 docking peptide (human); STTRRRLFVENDS; partner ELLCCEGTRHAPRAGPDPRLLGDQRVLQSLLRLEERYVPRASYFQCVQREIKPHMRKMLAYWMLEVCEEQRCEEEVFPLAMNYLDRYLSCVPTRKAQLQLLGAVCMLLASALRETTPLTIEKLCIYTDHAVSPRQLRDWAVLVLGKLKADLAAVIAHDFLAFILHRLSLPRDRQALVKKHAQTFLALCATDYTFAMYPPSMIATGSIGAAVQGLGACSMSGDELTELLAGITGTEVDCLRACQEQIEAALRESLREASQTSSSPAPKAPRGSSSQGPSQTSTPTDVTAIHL
T2K: 0.242
E10H: 0.13
D12Q: 0.0598
S13H: 0.147
L7K: 0.0801
R4H: 0.0688
R5K F8L: -0.338
F8A: 0.0464
F8K: 0.134
T3R: 0.1
L7A: 0.144
S1G: 0.1
F8C: 0.115
F8I: 0.158
S13K: 0.048
E10L: 0.116

Further values, each from its own experiment
PhoQ, residues 284 288 289 292 302 303 NLMGRA  fold induction (PhoP, residues 12 14 15 18 19 LWHSL (Escherichia coli, UniProt P23836); Sort-seq, item: YFP reporter; E. coli; PhoQ-PhoP variant library, with: 10 µM Mg2+; reference: high Mg2+ state, higher = stronger signaling): 15 and 12

Repeated from above (study 1):
UCUUAACAGAAAUAUUUUUAAAAAUGAAAAAGUACUCAAAAGUGAGAAGAGUUAACUUGUCAAAGCAGAAUGGUUCUCUUUGACCCACUCUGGUCUAUUGUGUAAAUAUU: 0.843
AGGUCAGGAGAUCGAGACCAUCCUGGCUAACAUGGUGAAACCCCGUCUCUGCUAAAAAUACAAAAAAUUAGCCAGAUGUGGUGGUGCACACCUGUAGUCCCAACUAUUCG: 0.298
UCAUUAAUGAUGGUGGAAGCAAGUGUAUUAUUUGUUUCCUGGAGAAUUUGAUGAAGAGCAGUCUUCCUCUGCUGCCCUUUACUAAGCAAAACCUGGAGCAAUUUAAAUAG: 0.445
CUCUGCCUGUCUCCCCCACCGGGCUGGGAGCUCUGCAGAGCAGGAAACAUGACUCGUAUAUGUCUCAGGUCCCUGCAGGGCCAAGCACCUAGCCUCGCUCUUGGCAGGUA: 0.274
UGACCGCAACAUCCCGUGUGGGCGGCCGGCCGCUCCUGCAGCCCGACUCUCCUGCCAGUGUCUUUCAGGAUGUCAACGGGUGGUACGAUUCUGGCAUUUGUUUCUCGCUC: 0.285
GGCCUUCUCAGGCCUGGCCCUUUUCAUCAGAUACAAGGGCCAGGAGACCAGACUCUUGCUUCUGAUCUUCCUUCAGCCCUCAGUGUGGGAAUAAAUUAAGUUUCUCAACA: 0.225
